Experimental data pooled from the literature.
Parts stem from different laboratories: compare values within a part only. Changes are numbered by the printed parent chain.

Study 1 — method: protein binding microarray; molecule type: double-stranded DNA, one strand shown; medium: in vitro; concentration: not given; reference: not given; reading: higher = stronger binding
Target: Histone acetyltransferase KAT6A, both winged helices, GST fusion (KAT6A, Homo sapiens, UniProt Q92794, residues 1-181)
Setting: 8-mer, flanks averaged, mean of 2 arrays, mostly near background
Residues (chain): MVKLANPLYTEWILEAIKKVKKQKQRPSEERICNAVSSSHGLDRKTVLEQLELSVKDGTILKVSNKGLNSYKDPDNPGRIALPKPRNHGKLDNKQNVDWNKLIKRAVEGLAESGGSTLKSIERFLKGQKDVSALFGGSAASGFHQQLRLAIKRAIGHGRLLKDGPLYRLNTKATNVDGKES
| Strand | E-score |
| --- | --- |
| CGAAAGAC | 0.00739 |
| AATCGCCA | 0.0312 |
| CGAAACGC | 0.171 |
| ATTCAGTC | 0.0929 |
| AGGGGGAT | -0.211 |
| ACTGGCCC | -0.251 |
| ACGGGGCA | 0.171 |
| CCCAGAAC | -0.142 |
| GAGCGGTA | 0.217 |
| AAGACTGC | -0.0451 |

Study 2 — method: aptamer microarray, sandwich; molecule type: DNA with 2'F-ANA; medium: in vitro; concentration: 200 nM; together with: Cy3 exosite-II aptamer, 400 nM; reading: higher = stronger binding; strand: GGTTGGTGTGGTTGG
Target: Prothrombin, mature alpha-thrombin (F2, Homo sapiens, UniProt P00734)
Setting: whole 15-mer aptamer, many near background
| Modification | mean fluorescence intensity [a.u.] |
| --- | --- |
| 2'F-ANA at 3 6 7 8 9 10 13 15 | 470 |
| 2'F-ANA at 1 2 3 5 10 11 12 13 14 15 | 45.9 |
| 2'F-ANA at 2 3 5 6 7 8 10 11 12 14 15 | 51.2 |
| 2'F-ANA at 4 5 6 7 8 9 11 13 14 | 48.4 |
| 2'F-ANA at 5 6 8 10 15 | 56.3 |
| 2'F-ANA at 1 6 8 10 12 14 15 | 48.3 |
| 2'F-ANA at 2 3 5 6 9 10 12 13 14 15 | 50.2 |
| 2'F-ANA at 2 4 7 10 12 13 14 | 64.4 |
| 2'F-ANA at 1 2 3 4 6 8 10 11 15 | 58.6 |
| 2'F-ANA at 1 2 3 5 6 7 10 13 14 15 | 50 |
| 2'F-ANA at 4 5 6 7 8 9 10 11 13 14 | 62.8 |
| 2'F-ANA at 1 2 3 4 6 11 13 14 | 84.1 |
| 2'F-ANA at 2 3 6 7 8 9 13 14 15 | 355 |
| 2'F-ANA at 3 5 8 10 13 | 54.9 |
| 2'F-ANA at 3 5 6 9 10 12 14 15 | 52.5 |

Study 3 — target: CCND3, cyclin fold, Cln2 fusion (human); method: yeast growth competition, sequencing; medium: yeast; setting: weak parent motif; reference: not given; reading: higher = stronger binding
Starting sequence: MASTL docking peptide (human); PMIAKNLMCELDE
| Substitution | normalised enrichment score |
| --- | --- |
| PMIAKNLMCRLDE [E10R] | 0.359 |
| PMIQKNLMCELDE [A4Q] | -0.251 |
| PMIAKPLMCELDE [N6P] | -0.043 |
| PMIAKNLMCELWE [D12W] | -0.292 |
| PMIAKNLMCLLDE [E10L] | 0.126 |
| PMILKNLMCELDE [A4L] | 0.0735 |

Other studies, line by line
| Molecule | target | assay | system | conditions | how to read | quantity | result |
| --- | --- | --- | --- | --- | --- | --- | --- |
| PhoQ, residues 284 288 289 292 302 303 AAQSYM | PhoP, residues 12 14 15 18 19 IQFRS (Escherichia coli, UniProt P23836) | Sort-seq, refers to: YFP reporter | E. coli | PhoQ-PhoP variant library, together with: 10 µM Mg2+ | reference: high Mg2+ state, higher = stronger signaling | fold induction | 20.8 |

Repeated from above (study 1):
| Strand | E-score |
| --- | --- |
| CGAAAGAC | 0.00739 |
| AATCGCCA | 0.0312 |
| CGAAACGC | 0.171 |
| ATTCAGTC | 0.0929 |
| AGGGGGAT | -0.211 |
